Measurements of several laboratories.
A part holds a random share of what one study measured.

Series 1
Target: Histone acetyltransferase KAT6A, winged helix 1, GST fusion (KAT6A, Homo sapiens, UniProt Q92794, residues 1-85)
Technique: protein binding microarray
Molecule type: double-stranded DNA, one strand shown
Medium: in vitro
Tested at: not given
Notes: 8-mer, flanks averaged, mean of 2 arrays, mostly near background
Reference: not given
Direction: higher = stronger binding
Measurement: E-score
Target sequence (chain): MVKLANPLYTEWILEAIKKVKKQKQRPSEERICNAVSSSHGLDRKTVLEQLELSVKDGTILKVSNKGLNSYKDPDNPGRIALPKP
Oligonucleotide = GGTGTCTA; result = -0.22
Oligonucleotide = AGTGCAAT; result = -0.0835
Oligonucleotide = AATCTAGC; result = -0.032
Oligonucleotide = GCCTTCAC; result = 0.12
Oligonucleotide = CGAAAGGC; result = 0.197
Oligonucleotide = CGTTTAGA; result = 0.0324

Series 2
Target: Sal-like protein 4, full length isoform B (SALL4, Homo sapiens, UniProt Q9UJQ4-2, residues 1-616)
Technique: universal PBM
Molecule type: double-stranded DNA, one strand shown
Medium: in vitro
Tested at: not given
Notes: 8-mer, flanks averaged, mean of replicates
Direction: higher = stronger binding
Measurement: E-score
Oligonucleotide = AGCAGGAA; result = 0.0418
Oligonucleotide = GCTCGCAA; result = -0.116
Oligonucleotide = AATTCCCG; result = -0.0189
Oligonucleotide = GCTCTCGA; result = -0.166

Mixed results
Molecule = PhoQ, residues 284 288 289 292 302 303 SLCLSL; target or system = PhoP, residues 12 14 15 18 19 NFCKL (Escherichia coli, UniProt P23836); test = Sort-seq, measured: YFP reporter; system = E. coli; setting = PhoQ-PhoP variant library, added: 10 µM Mg2+; scale = reference: high Mg2+ state, higher = stronger signaling; measurement = fold induction; result = 32.4
Molecule = SFPQ (Homo sapiens, UniProt P23246); target or system = CACNA1C (Homo sapiens, UniProt Q13936); test = cross-linking MS; system = cell fractions; setting = added: DMTMM; measurement = cross-linked residues; result = K502 to E785

A few entries again (series 1):
Oligonucleotide = CGAAAGGC; result = 0.197
